Experimental data gathered from unrelated publications.
Numbered parts are unrelated; each lists some results of a single study.

Series 1 — method: RNA Bind-n-Seq; molecule type: RNA; matrix: in vitro; tested at: not given; reference: input RNA pool; reading: higher = stronger binding
Target: RING finger protein unkempt homolog, zinc fingers 1-6, GST-SBP tag (UNK, Homo sapiens, UniProt Q9C0B0, residues 30-357)
Chain of UniProt Q9C0B0 (30-357, looked up): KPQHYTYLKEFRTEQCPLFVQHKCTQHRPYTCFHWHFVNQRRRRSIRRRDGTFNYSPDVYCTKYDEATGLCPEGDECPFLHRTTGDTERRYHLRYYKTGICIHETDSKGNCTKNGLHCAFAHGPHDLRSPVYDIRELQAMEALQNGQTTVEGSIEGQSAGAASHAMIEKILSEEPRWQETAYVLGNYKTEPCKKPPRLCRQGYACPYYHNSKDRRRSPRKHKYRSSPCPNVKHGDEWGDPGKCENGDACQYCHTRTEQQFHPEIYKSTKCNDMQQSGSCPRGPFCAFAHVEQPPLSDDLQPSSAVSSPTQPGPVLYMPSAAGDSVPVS
Notes: RNA with constant flanks, human and mouse sites, ends assumed
With `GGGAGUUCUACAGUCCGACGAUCCAUAAUUAUGGUGCUCGUCCUCCUCCAACACCUCCAGCAUCCCCUCCUCCAUCAGGUCUCAUUAGCAAAAACGAAGUAGGCAUAUUUACCACUCCUAAUUUUGAUGAAACUUCCAGUGCUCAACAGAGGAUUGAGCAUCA` the bound/input enrichment was 2.59 ratio.
`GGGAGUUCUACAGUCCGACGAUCGAUACUCAAUGAGGAGCUUUUUUCCCCUCUUGGAACAGGUAAAAUGCUUUUUCUUAUUAAUAUAAUUAUAAAACAGUAUUUUAUGUAACAGCUAUUCCCAUAUUCUAGGAGUGGCCUAAGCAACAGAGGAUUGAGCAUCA` has a bound/input enrichment of 0.442 ratio.
The bound/input enrichment of `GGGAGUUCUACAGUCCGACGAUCUCCCAUGGUGGAGGAGACAGCAGCAUGAUGAUGAUGCCUAUGACCUUCUACUUUGGCUUUAAGAAUGUGGAACUACUGUUUUCCGGUUUGGUGAUCAAUACAGCUGGAGAAAUGGCUGGACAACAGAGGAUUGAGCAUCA` is reported as 0.242 ratio.
The bound/input enrichment of `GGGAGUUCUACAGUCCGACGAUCAAAAACAAAAUUAAAAGCUAUUCAAUUCUGCAUGGAAUAUAUCUGCUGUCAUCUUAAUCUUAGUUUGGAUCAACCUCAUUUAUUUAUCUUAAAAUUAACCAGCUUUCUCAGUUCCAUCCACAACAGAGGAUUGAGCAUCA` is reported as 2.45 ratio.
`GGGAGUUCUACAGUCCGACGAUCUUCAGGAAGGGCCGAGAAGACAGAGCUCCACUCCUGAAGACCUUCAGCUUCUUGGGCUUUGAGAUUGUACGUCCAGGCCAUCCCUGUGUCCCCUCUCGGCCAGAUGUGAUGUUCAUGGUUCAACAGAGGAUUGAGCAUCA` gave a bound/input enrichment of 0.111 ratio.
The bound/input enrichment of `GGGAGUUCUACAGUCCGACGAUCUGCAGUCAUCCAGUCCUUGGGCAAAAUACAGAGAAUGUGUCACAACCAGAAAGAGAAGAUACUCAAGACAACUCUAAGGAAUUGCUAGGAAUUUCAGAUGAAUGCCAAAAGAUUUCUCCUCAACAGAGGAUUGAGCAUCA` is reported as 0.177 ratio.
`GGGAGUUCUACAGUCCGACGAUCUACUCGGACAAGUACUUCGACGAACACUACGAGUACCGGCAUGUUAUGUUACCCAGAGAACUUUCCAAACAAGUACCUAAAACUCAUCUGAUGUCUGAAGAGGAGUGGAGGAGACUUGGUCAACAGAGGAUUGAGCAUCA` gave a bound/input enrichment of 0.131 ratio.
The bound/input enrichment of `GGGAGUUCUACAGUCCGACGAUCUAUGAACCACCUCUGUCCCAUACUCCCACUGCUGCCUCCUCAGCCAUUAUAGAUUGUAUCCUCUGAAACCGUGAGCCAAAAUAAACCUUACCUCCCUUGAGUUGUUUCUGUCAUGUGUUUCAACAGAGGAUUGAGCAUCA` is reported as 1.21 ratio.
`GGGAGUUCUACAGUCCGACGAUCCAGCUGGAAGAUGGCCGCACCCUGUCAGACUACAACAUCCAGAAAGAGUCCACCCUGCACUUAGUCCUUCGCCUCAGAGGUGGGAUGCAGAUCUUUGUGAAGACCCUGACAGGCAAAACCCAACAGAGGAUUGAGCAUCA` has a bound/input enrichment of 0.168 ratio.
With `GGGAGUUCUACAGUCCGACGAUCUCUCGGGAACAGCUUGCUAUUGCAGAGUUUGCAAGAUCUCUGCUUGUGAUUCCUAAUACACUGGCAGUGAAUGCUGCCCAGGACUCCACCGACCUGGUUGCCAAGUUAAGAGCUUUUCACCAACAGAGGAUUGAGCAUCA` the bound/input enrichment was 0.118 ratio.
`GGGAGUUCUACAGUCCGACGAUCUCUAGGCAUUCAAGAUCUCGUAGCAGGCACAGAUUGUCUAGAUCCAGAAGUCGUCAUUCUAGUAUUUCUCCUAGCACACUAACUCUGAAGAGUAGCCUGGCAGCUGAAUUGAACAAGAAUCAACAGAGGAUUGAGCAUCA` gave a bound/input enrichment of 0.289 ratio.

Series 2 — method: RNA Bind-n-Seq; molecule type: RNA; matrix: in vitro; tested at: 365 nM; reference: no-protein control; reading: higher = stronger binding
Target: RNA binding protein fox-1 homolog 2, RRM domain, GST-SBP tag (RBFOX2, Homo sapiens, UniProt O43251-10, residues 100-194)
Notes: natural RNA segment, single round, ends assumed
Construct (chain): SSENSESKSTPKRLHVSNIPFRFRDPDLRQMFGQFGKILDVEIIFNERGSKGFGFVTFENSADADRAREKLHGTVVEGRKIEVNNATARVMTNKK
Under “RBNS enrichment (R)”, `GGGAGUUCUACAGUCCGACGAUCAGAGAGUUUGCCUUAUACAAUUUCCUGUUACAAAGCUCUCCCUCUCAUGCAAAGUAGGGAACACCUUUUGAGCAUCUUUGAAUUUGACAAAUGGUGCUGUUGCAAACACUUGGAAUUCUCGGGUGCCAA` is recorded as 0.23.
`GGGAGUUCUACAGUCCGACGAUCUAGAAAGUAAAACUCCUUUUGAAGUGUCCCAAGGACUGGGUCAGUUAGAACCUGUCUGCCACUAUCUGAUGACUUACAUUGUGGUUUUCUACAAGCCACCUCAGUUAACUUGGAAUUCUCGGGUGCCAA`: “RBNS enrichment (R)” 0.534.
`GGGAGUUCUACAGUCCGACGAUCUCAGCCGUGUCUGCAUUGGAGCCUCACUGCAGUGUUCCUGGUGGCUCCUCUUAACUCCUGCUGCUGUCCAUGGGGUUUCCAGAGCCUUCACCUACAGCUCAGUGGGGUUUUGGAAUUCUCGGGUGCCAA`: “RBNS enrichment (R)” 0.356.
Under “RBNS enrichment (R)”, `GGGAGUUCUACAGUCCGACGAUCCAGUGAAAGUCGUCCUUGUCUCAGAAUGACCAGGGGCCAGCCAGUGUCUGACCAAGGUCAAGGGGCAGGUGCAGAGGUGGCAGGGAUGGCUCCGAAGCCAGAAAUGCCUUUGGAAUUCUCGGGUGCCAA` is recorded as 0.282.
`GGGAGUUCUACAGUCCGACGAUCGUGCUGAGCACCUGGUAUUGAGGUACAGAGGAGGGCUCCGCCUGCAGGCACUGUGGCCGCUGAGCUGCGUGUUCCCAGCUGCCUCUGUUGCGGACAGCCCGCUCCACUCUUGGAAUUCUCGGGUGCCAA`: “RBNS enrichment (R)” 0.437.
For `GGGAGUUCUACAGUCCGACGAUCUCCCCAACCCCCGACCCCACAAACAGGGCCUCUGUAAUCCUCCAGCUAACUUCCUACAAACAUCUGCCUGGAAGAUUAGUAGAAUCCUAAUUCUAGGCUGGAAUGAGCUUUGGAAUUCUCGGGUGCCAA`, “RBNS enrichment (R)” read 0.376.
`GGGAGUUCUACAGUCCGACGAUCAUAGGUCAGGGGCUAGGUGUUGAACUUAGUUAAUGGAAGACUGAGAGCAGAACAGGUUUGUCAUCUCCGCAAGGCCAGAAAGUGAUCACAAAAAGAGGCAGAUGAUAGACUGGAAUUCUCGGGUGCCAA`: “RBNS enrichment (R)” 0.379.
`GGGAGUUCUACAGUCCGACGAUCGUGAUUUACAGAAAUAAAAUCCCAGUGUCCACUCAAUGCUGGUCUGACUCAGAUCCAGUUGGGUGGUUGGAGUGCUUCCCCAAAUAACCACUUAUUUUUUAAAGCGUCAUUGGAAUUCUCGGGUGCCAA`: “RBNS enrichment (R)” 0.411.
`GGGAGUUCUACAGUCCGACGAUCGCCAAACCAGGCCUCCACCGACCCACCUGCCUGGAGAUUUCCUCUAUGUAGGCAACCCUGCCACUGCUGGGCACCUCUAACUGGCCCUUUGGCCCCACCCAAGCCCAAACUGGAAUUCUCGGGUGCCAA` — result for “RBNS enrichment (R)”: 0.267.
Under “RBNS enrichment (R)”, `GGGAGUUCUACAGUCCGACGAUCAGAGACAAUCCUCUUCAUGGGCCAAGUGAUGGAGCCUUGACAGUGGGAAGAGACGCCUUCAUUUGGGACGAAACUGGAGAUGUUAUAAGCAGAAACUCUGAAGAAAAGGAUGGAAUUCUCGGGUGCCAA` is recorded as 0.487.
`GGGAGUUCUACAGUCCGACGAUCAGCAUAUGGGAGUAUUUUUUCACAUUUUCUUUGUAUAAAAUUUGUAUUAAACUUAAAUAUCUUUUUUAUGAUGGCGUUUCUUCAUGGCUGAACAGCGUCCUCUCGCGGUUUGGAAUUCUCGGGUGCCAA` — result for “RBNS enrichment (R)”: 0.479.
Under “RBNS enrichment (R)”, `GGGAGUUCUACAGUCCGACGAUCCCCCCAAGGACUGCAGGGCUUUCCCAAGCUGAGGCAGGAACGUGAGGCCAGGGAAGAGUGAGCUUCACCCUCAUCCCACGCUGUCCUCCUCAACCCACCAUGCUCAUCAUUGGAAUUCUCGGGUGCCAA` is recorded as 0.321.

Series 3 — method: protein binding microarray; molecule type: double-stranded DNA, one strand shown; matrix: in vitro; tested at: not given; reference: not given; reading: higher = stronger binding
Target: Histone acetyltransferase KAT6A, both winged helices, GST fusion (KAT6A, Homo sapiens, UniProt Q92794, residues 1-181)
Notes: 8-mer, flanks averaged, mean of 2 arrays, mostly near background
Target sequence (chain): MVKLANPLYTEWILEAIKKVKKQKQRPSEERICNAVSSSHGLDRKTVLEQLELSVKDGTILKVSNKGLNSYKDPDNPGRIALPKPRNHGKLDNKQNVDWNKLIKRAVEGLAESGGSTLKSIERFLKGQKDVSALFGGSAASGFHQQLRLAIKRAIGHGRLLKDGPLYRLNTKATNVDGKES
With `CTTTCGCA` the E-score was -0.0593.
`ACCACGAG` gave an E-score of -0.0463.
`CATAACGC` gave an E-score of 0.111.
With `ACGATAAT` the E-score was -0.066.
`ACCCTAAG` gave an E-score of -0.206.
The E-score of `ACAAAGTG` is reported as -0.219.
`TAGTGCGA` gave an E-score of 0.105.
`GCTCTGCA` has an E-score of -0.0583.
The E-score of `CCCTATAA` is reported as -0.176.
`CTCCAGCC` gave an E-score of -0.0631.
With `AAGTGAGC` the E-score was -0.215.
`AACACCAT` has an E-score of -0.0421.
`CTGTTTTA` gave an E-score of -0.0464.
With `CACCATTC` the E-score was -0.202.
`CCTGCTCG` has an E-score of -0.0539.
The E-score of `AATGCTCA` is reported as -0.137.
With `AGGCATTC` the E-score was -0.163.
`AGGGACAA` has an E-score of 0.0432.
`TTACTGAA` has an E-score of -0.0633.
`AACTCGTA` has an E-score of -0.173.
With `GTTCTAGA` the E-score was -0.0679.
`ACGGCTGG` has an E-score of 0.0888.
`GACTGAAA` gave an E-score of -0.0302.

Series 4 — method: protein-binding microarray; molecule type: double-stranded DNA, one strand shown; matrix: in vitro; tested at: not given; reading: higher = stronger binding
Target: Protein C-ets-1 (ETS1, Homo sapiens, UniProt P14921, residues 1-441, full length assumed)
Notes: k-mer, scored over probes, only values ≥0.25
Construct (chain): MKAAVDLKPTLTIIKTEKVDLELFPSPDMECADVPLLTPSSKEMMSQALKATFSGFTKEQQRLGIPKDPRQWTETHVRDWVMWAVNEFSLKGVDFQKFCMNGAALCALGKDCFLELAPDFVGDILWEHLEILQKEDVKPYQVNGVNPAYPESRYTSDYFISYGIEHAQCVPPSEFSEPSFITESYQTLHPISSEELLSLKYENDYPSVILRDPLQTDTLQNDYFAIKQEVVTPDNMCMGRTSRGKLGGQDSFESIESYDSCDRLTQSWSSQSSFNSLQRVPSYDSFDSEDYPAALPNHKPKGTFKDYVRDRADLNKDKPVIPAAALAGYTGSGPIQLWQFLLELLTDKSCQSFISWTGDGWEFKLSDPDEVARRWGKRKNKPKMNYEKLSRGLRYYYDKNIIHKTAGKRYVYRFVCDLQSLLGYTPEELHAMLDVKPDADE
`CGGAATTA` gave an E-score of 0.258.
For `GAAACGGA`, the E-score was 0.351.
The E-score of `CAGGATAC` is reported as 0.418.
For `ATCCCCCG`, the E-score was 0.313.
`TACCGGGA` gave an E-score of 0.358.
`ATTTCCAG` gave an E-score of 0.354.
For `TAGGCGGA`, the E-score was 0.356.
For `CGGATCTC`, the E-score was 0.35.
With `GAGCGGAC` the E-score was 0.293.
`AAGTATCC` gave an E-score of 0.273.
For `CGGCGTCC`, the E-score was 0.298.
`AATGCGGA` has an E-score of 0.311.
`AGGGGAAG` gave an E-score of 0.376.
With `CTACATCC` the E-score was 0.458.
`ATTTCCCC` gave an E-score of 0.36.
`AGGAAAAC` gave an E-score of 0.334.
With `GTCCTGTA` the E-score was 0.343.
With `GGACGTCC` the E-score was 0.395.
`CCCCGTCA` gave an E-score of 0.27.
For `GGCCGGAA`, the E-score was 0.484.
`ACCCGGAC` gave an E-score of 0.297.
The E-score of `ACGTATCC` is reported as 0.254.
`AACATCCG` has an E-score of 0.49.
`CATCCTTC` has an E-score of 0.385.
With `ATCGGATG` the E-score was 0.433.

For quick reference, copied from above (series 3):
`TTACTGAA` has an E-score of -0.0633.
`AACTCGTA` has an E-score of -0.173.
With `GTTCTAGA` the E-score was -0.0679.
`ACGGCTGG` has an E-score of 0.0888.
